Published values from different studies.
Compare with care: the assays were run in different laboratories. ± gives the spread as reported.
Target: Cytochrome P450 2C19 (CYP2C19, Homo sapiens, UniProt P33261)
Chain of UniProt P33261 (whole entry, looked up): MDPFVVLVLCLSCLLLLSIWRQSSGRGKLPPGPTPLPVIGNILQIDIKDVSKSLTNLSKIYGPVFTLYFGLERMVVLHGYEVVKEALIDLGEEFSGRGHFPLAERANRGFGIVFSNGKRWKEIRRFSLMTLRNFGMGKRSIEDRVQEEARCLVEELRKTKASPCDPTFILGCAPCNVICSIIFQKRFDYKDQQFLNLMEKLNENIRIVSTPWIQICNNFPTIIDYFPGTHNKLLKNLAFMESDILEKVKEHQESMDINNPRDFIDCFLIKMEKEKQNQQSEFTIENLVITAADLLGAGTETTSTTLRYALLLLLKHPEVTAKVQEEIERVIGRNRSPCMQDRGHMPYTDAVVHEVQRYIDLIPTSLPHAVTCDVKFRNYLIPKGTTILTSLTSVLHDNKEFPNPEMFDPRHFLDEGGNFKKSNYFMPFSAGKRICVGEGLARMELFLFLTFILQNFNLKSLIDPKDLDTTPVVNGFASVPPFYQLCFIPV

Compound	test	system	conditions	endpoint	value
C[C@H](NCc1ccc(-c2ccc(C(F)(F)F)cc2)cc1)C(N)=O	enzyme activity, inhibitor, luciferase	–	pH 7.4	IC50	> 10 µM
C(#Cc1cncc(OC[C@@H]2CCN2)c1)c1ccccc1	enzyme activity, inhibitor, fluorescence	–	–	IC50	1.12 µM
COc1ccc(F)cc1S(=O)(=O)Nc1cnc2c(c1)C(=O)NCCO2	enzyme activity, inhibitor	human, liver microsomes	with preincubation	IC50	> 100 µM
c1ccc(C2(CCNC3CCC4(SCCS4)c4ccccc43)CCOC3(CCCC3)C2)nc1 (stereo not shown)	enzyme activity, inhibitor	human, liver microsomes	–	IC50	24.3 µM
Cc1ccc2nc(C)c(C(=O)NCc3cccs3)n2c1	inhibitor	–	–	IC50	25 µM
CCn1ccc(-c2cc(-c3cnn(C)c3)cc([C@@H](C)NC(=O)c3cc(OCCN(C)C)ccc3C)c2)n1	enzyme activity, inhibitor	pooled human liver microsomes	10 (unit not given)	IC50	> 50 µM
CCc1ccc([C@@H]2C[C@H](C(F)(F)F)n3ncc(C(=O)NCc4ccc(OC)cc4)c3N2)cc1	inhibitor	–	–	IC50	10 µM
CCCCCc1cc(O)c2c(c1)OC(C)(C)C1CCC(C)=CC21 (single isomer, unassigned; (-))	inhibitor, probe substrate	recombinant microsomes, HEK293	with: omeprazole	Ki	1.3 ± 0.42 µM
Cc1ccc2nc(C(F)(F)F)c(C(=O)NCc3cccc(Cl)c3)n2c1	inhibitor	–	–	IC50	14 µM
Cc1ccc(N2CC3CCC(C2)N3C)cc1C(=O)N[C@H](C)c1cc(-c2cnn(C)c2)nc2ccccc12	enzyme activity	–	–	IC50	> 50 µM
